Measured values collected from several papers.
Numbered parts are unrelated; each lists some results of a single study. “And” joins repeats or separate records; there may be more than shown.

Series 1 — tested at: 1 µM; relative to: DMSO; endpoint: viability
SMILES: COc1ccc2c(c1)O[C@H](c1ccc(OC)c(OC)c1)C[C@@H]2NC(=O)C1(c2ccc3c(c2)OC(F)(F)O3)CC1 (single isomer, unassigned)
sample C colorectal tumour organoid: 107% and 138%
normal adjacent epithelium organoid sample D; CellTiter-Glo: 113%
normal-adjacent epithelium patient-derived organoids sample E; CellTiter-Glo: 110% and 102%
normal adjacent epithelium organoid sample H; CellTiter-Glo: 147%
sample J colorectal tumour organoid: 91.4% and 101%
normal adjacent epithelium organoid sample E; CellTiter-Glo: 106%
colorectal tumour organoids: 110%

Series 2 — organism: Sarcocystis neurona; observed: parasite growth; tested at: 10 µM; time: 96 h; relative to: untreated; endpoint: log2 fold change
CCC(C)(C)C(=O)O[C@H]1C[C@@H](C)C=C2C=C[C@H](C)[C@H](CC[C@@H]3C[C@@H](O)CC(=O)O3)[C@H]21: 0.35
Nc1cc(N2CCCCC2)nc(N)[n+]1[O-]: 0.35
CC(C(=O)O)c1cccc(C(=O)c2ccccc2)c1 (stereo not drawn): 0.35
COC(=O)Nc1nc2ccc(C(=O)c3ccccc3)cc2[nH]1: 0.72
CC(C)Oc1ccc2c(=O)c(-c3ccccc3)coc2c1: 2.59
CC12CC3CC(C)(C1)CC(N)(C3)C2: 0.32
CC(=O)NC[C@H]1CN(c2ccc(N3CCOCC3)c(F)c2)C(=O)O1: -0.05
c1cnc(N2CCN(Cc3ccc4c(c3)OCO4)CC2)nc1: 0.42
c1ccc(CC2=NCCN2)cc1: 0.36
Nc1ccc(S(=O)(=O)c2ccc(N)cc2)cc1: 0.29
N#Cc1ccc(C(c2ccc(C#N)cc2)n2cncn2)cc1: 0.35
CC1=C(/C=C/C(C)=C/C=C/C(C)=C/C(=O)O)C(C)(C)CCC1: 0.48
CN1CCC(=C2c3ccccc3C=Cc3ccccc32)CC1: -0.19

Series 3 — cell line: A-375; tested at: 100 µM; time: 36 h; endpoint: viability
COc1cc2nc(N3CCN(C(=O)c4ccco4)CC3)nc(N)c2cc1OC: 0.419%
CC(=O)Oc1cccc2c1C(=O)c1c(OC(C)=O)cc(C(=O)O)cc1C2=O: 32.1%
CC(=O)O[C@H]1C[C@@]2(C)[C@@H](C[C@@H](O)[C@H]3[C@@]4(C)CC[C@@H](O)[C@@H](C)[C@@H]4CC[C@@]32C)/C1=C(\CCC=C(C)C)C(=O)O: 90.6%
N#Cc1cc(-c2n[nH]c(-c3ccncc3)n2)ccn1: 85.5%
N#C/C(=C1/SC[C@@H](c2ccc(Cl)cc2Cl)S1)n1ccnc1: 6.16%
N[C@H]1C(O)O[C@H](CO)[C@@H](O)[C@@H]1O (stereo partly drawn): 107%
CCCCS(=O)(=O)N[C@@H](Cc1ccc(OCCCCC2CCNCC2)cc1)C(=O)O: 109%
CC(C)(S)C(N)C(=O)O (racemic): 120%
O=C(O)c1ccc(-n2nc(-c3ccccc3O)nc2-c2ccccc2O)cc1: 40%
C[n+]1ccccc1/C=N/O: 110%

Series 4 — observed: enzyme activity; mode: inhibitor; tested at: 0.5 µM; relative to: control; endpoint: remaining activity
Target: Maternal embryonic leucine zipper kinase (MELK, Homo sapiens, UniProt Q14680)
Chain of UniProt Q14680 (whole entry, looked up): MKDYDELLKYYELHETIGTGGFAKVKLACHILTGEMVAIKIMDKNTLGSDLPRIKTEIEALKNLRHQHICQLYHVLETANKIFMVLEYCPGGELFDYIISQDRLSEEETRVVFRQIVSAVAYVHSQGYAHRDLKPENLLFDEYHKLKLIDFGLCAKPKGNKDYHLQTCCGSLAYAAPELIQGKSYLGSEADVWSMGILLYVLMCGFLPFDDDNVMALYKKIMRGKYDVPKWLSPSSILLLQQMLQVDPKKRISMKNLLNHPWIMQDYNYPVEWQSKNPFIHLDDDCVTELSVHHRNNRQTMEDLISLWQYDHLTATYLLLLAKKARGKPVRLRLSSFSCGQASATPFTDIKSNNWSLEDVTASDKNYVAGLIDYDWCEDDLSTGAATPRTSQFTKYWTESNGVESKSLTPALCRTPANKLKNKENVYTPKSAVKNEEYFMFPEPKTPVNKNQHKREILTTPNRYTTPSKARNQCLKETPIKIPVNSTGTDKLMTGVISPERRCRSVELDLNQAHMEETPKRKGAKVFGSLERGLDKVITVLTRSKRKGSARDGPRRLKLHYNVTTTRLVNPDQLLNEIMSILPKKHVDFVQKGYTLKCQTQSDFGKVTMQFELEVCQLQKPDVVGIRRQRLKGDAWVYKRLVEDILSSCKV
N#CC(c1ccnc(NCCc2cccnc2)n1)c1nc2ccccc2s1 (stereo not drawn): 91.7%
CNc1cc2c(Nc3cccc(Br)c3)ncnc2cn1: 91.6%
CCCCc1c(-c2ccc(O)cc2)[nH]c2nccnc12: 82.5%
O=Nc1c(-c2c(O)[nH]c3ccccc23)[nH]c2ccccc12: 33.3%
CC(C)N(CCC(=O)c1ccc2ccccc2c1)Cc1ccccc1: 99.4%
NC(=O)c1cccc(-c2cc(Nc3ccc(OC(F)(F)F)cc3)ncn2)c1: 94.5%
N#C/C(=C(/N)SC1C=CC=CC1)c1cccc(C(O)c2ccncc2)c1 (stereo not drawn): 97%
O=c1c(-c2ccc(F)cc2)c(-c2ccncc2)[nH]n1-c1ccc(Cl)cc1: 86.5%
CC(C)n1cnc2c(Nc3cccc(Cl)c3)nc(NCCO)nc21: 59.7%

Repeated from above (series 4):
CC(C)N(CCC(=O)c1ccc2ccccc2c1)Cc1ccccc1: 99.4%
N#CC(c1ccnc(NCCc2cccnc2)n1)c1nc2ccccc2s1 (stereo not drawn): 91.7%
CC(C)n1cnc2c(Nc3cccc(Cl)c3)nc(NCCO)nc21: 59.7%
